Experimental data pooled from the literature.
Parts stem from different laboratories: compare values within a part only. Substitutions count along the parent as printed.

Study 1
Target: CCNA1, cyclin fold, Cln2 fusion (human)
Technique: yeast growth competition, sequencing
Medium: yeast
Notes: weak parent motif
Baseline: not given
Reading: higher = stronger binding
Parent: PKMYT1 docking peptide (human); SFEPRNLLSLFED; partner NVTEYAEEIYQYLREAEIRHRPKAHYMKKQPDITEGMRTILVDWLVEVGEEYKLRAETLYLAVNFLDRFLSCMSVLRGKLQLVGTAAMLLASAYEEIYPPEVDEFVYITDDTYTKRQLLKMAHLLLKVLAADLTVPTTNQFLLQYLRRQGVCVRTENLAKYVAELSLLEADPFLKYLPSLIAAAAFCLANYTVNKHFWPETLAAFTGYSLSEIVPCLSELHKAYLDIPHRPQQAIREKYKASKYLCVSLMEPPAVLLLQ
Substitution	normalised enrichment score
S9N	-0.175
S9F	0.0814
L8Y	0.445
L10A	0.358
F2D	0.438

Study 2
Target: Sal-like protein 4, full length isoform B (SALL4, Homo sapiens, UniProt Q9UJQ4-2, residues 1-616)
Technique: universal PBM
Form: double-stranded DNA, one strand shown
Medium: in vitro
Tested at: not given
Notes: 8-mer, flanks averaged, mean of replicates
Reading: higher = stronger binding
Strand	E-score
AAGTCGGA	-0.0792
CGCTGCTC	-0.234
CATGCGAC	0.0511
AAAATGAG	0.252
GGCCAAAA	0.0261
ACTTGCGA	-0.0566
ATACAGCG	0.0612
CACGGCAG	-0.21
ATCAGGAT	0.0917

Study 3
Target: RING finger protein unkempt homolog, zinc fingers 1-6, GST-SBP tag (UNK, Homo sapiens, UniProt Q9C0B0, residues 30-357)
Chain of UniProt Q9C0B0 (30-357, looked up): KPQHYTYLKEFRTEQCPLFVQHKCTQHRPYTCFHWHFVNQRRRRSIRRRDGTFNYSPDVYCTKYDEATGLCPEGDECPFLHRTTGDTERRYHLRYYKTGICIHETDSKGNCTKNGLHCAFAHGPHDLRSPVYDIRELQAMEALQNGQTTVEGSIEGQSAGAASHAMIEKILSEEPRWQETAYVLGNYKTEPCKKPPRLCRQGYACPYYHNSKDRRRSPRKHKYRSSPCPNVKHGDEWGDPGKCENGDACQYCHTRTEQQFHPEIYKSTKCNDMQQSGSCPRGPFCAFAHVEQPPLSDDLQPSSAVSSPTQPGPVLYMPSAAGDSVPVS
Technique: RNA Bind-n-Seq
Form: RNA
Medium: in vitro
Tested at: not given
Notes: RNA with constant flanks, human and mouse sites, ends assumed
Baseline: input RNA pool
Reading: higher = stronger binding
Constant ends, left off below: GGGAGUUCUACAGUCCGACGAUC … CAACAGAGGAUUGAGCAUCA
Strand	bound/input enrichment
AGGAGUUCAUAUGAAGACAAAAAUUUGUUGAAGAAAAAUAAGGAUGAGUCCUCAGUUUCCAUUUCUCACACAAAAUGUUCCUUGUUAGGAGACAUCAGUGAUGGGAAAAACUUAGUACCU	0.384 ratio
CGCCUGAGUACAGACGUGACUUGUAGCUUGUUGCCUAACAGGCUUACUAACCCAAGACAGUUUAGAAAAUGUAUGUUAAAUCAAUCAUUCUCGAAGGAUUCAAGUCCUAUGCACAGAGGA	1.21 ratio
UUCUCCUCUUUCUUUCCUUCCCCUUCACCUUCCCCAUCUAACCCCCAAACAUUAUUGUCCAAACAUGACUGGACAGCAACUUUUGUUUCUUGACCCUGUGGUAUGACAGUCUGCUAAUAU	1.08 ratio
GCUAUGAAAAGGGGAGAGCCUGCCAUCUACAGGCCACUAGAUCCAAAGCCAUUCCCAAAUUAUAGAGCUAACUACAACUUCCGGGGCAUGUACAAUCAGAGGUAUCAUUGCCCAAUGCCC	0.315 ratio
CAACUUGGGGAGGAUAUUCGGCGAAUUCCUAUUCAUAAUGAAGAUAUUACUUAUGAUGAAUUAGUGCUAAUGAUGCAACGAGUUUUCAGAGGAAAACUUCUGAGUAAUGAUGAAGUAACA	1.16 ratio
GAGGGAAUGUCUGAAAGUCCCUUAAUAAUGUUAAGAAUCAAGAGAGAGAAAUUGUUGCCUUUUUUUUUUAAUUCUGAGCAUAUUGACCAUGUCAACUAACACUACAGAUUAAAAUAUCAU	0.51 ratio

Single results of other studies
Substance	target	test	test system	setting	how to read	quantity	value
PhoQ, residues 284 288 289 292 302 303 TVTVVA	PhoP, residues 12 14 15 18 19 AGCRL (Escherichia coli, UniProt P23836)	Sort-seq, measured: YFP reporter	E. coli	PhoQ-PhoP variant library, together with: 10 µM Mg2+	baseline: high Mg2+ state, higher = stronger signaling	fold induction	15.3

A few entries again (single results of other studies):
Substance	target	test	test system	setting	how to read	quantity	value
PhoQ, residues 284 288 289 292 302 303 TVTVVA	PhoP, residues 12 14 15 18 19 AGCRL (Escherichia coli, UniProt P23836)	Sort-seq, measured: YFP reporter	E. coli	PhoQ-PhoP variant library, together with: 10 µM Mg2+	baseline: high Mg2+ state, higher = stronger signaling	fold induction	15.3
